Assay results from different studies.
Protocols differ between the studies behind these lines.
Ephx2: Bifunctional epoxide hydrolase 2 (Ephx2, Mus musculus, UniProt P34914)
Chain of UniProt P34914 (whole entry, looked up): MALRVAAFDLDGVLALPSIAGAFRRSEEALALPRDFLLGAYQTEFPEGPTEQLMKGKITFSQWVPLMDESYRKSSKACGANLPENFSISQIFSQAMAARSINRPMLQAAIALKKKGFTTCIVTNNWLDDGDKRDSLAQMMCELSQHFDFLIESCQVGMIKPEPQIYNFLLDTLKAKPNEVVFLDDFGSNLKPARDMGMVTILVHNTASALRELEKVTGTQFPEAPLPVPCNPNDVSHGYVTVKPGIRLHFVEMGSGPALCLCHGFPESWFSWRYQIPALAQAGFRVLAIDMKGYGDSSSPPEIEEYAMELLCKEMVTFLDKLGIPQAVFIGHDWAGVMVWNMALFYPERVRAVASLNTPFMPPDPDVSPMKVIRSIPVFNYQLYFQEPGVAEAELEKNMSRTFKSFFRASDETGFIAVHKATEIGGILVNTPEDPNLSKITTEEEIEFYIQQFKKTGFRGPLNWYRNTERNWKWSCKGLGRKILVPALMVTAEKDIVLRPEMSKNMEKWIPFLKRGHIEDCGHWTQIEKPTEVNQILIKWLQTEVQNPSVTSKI
Ephx2 N-terminal phosphatase domain: Bifunctional epoxide hydrolase 2, N-terminal phosphatase domain (Ephx2, Mus musculus, UniProt P34914)

O=C(Nc1cccc(OC(F)(F)F)c1)N[C@H]1CC[C@H](Oc2ccc(C(=O)O)cc2)CC1 — IC50 (Ephx2; enzyme activity, inhibitor, fluorescence): 1.3 nM
O=C(Nc1ccc(O)c2ccccc12)NC1CCCCC1 — IC50 (Ephx2; enzyme activity, inhibitor, absorbance; pH 7.4, with preincubation): 650 nM
C[C@]12CC3CC(Nc4c(Nc5ccc(C(=O)N6CCC[C@H](C(=O)NCCCCC(=O)NO)C6)cc5)c(=O)c4=O)(C1)C[C@@](C)(C3)C2 — IC50 (Ephx2; enzyme activity, inhibitor, fluorescence): 4520 nM
N#Cc1ccc(C[C@H](NC(=O)OCC2c3ccccc3-c3ccccc32)C(=O)O)cc1 — IC50 (Ephx2 N-terminal phosphatase domain; N-terminal phosphatase activity; mouse; 10 min preincubation, together with: AttoPhos 15 µM): 2300 nM
C[C@]12C[C@@H]3C[C@](C)(C1)C[C@@](NC(=O)Nc1ccc(CN4CCC[C@H](C(=O)NCCCCCCC(=O)NO)C4)cc1F)(C3)C2 — IC50 (Ephx2; enzyme activity, inhibitor, fluorescence): 0.7 nM
O=C(Nc1ccc(OC(F)(F)F)cc1)NC1CCN(C(=O)C2CC2)CC1 — IC50 (Ephx2; enzyme activity, inhibitor, fluorescence; pH 7, with preincubation): 5.3 nM
NC(=O)c1cccc(-c2cc(OC(=O)NC3CCCCC3)ccc2O)c1 — IC50 (Ephx2; enzyme activity, inhibitor, fluorescence; pH 7.4): 17800 nM
CC(=O)N[C@@H](CSC/C=C(\C)CC/C=C(\C)CCC=C(C)C)C(=O)O — IC50 (Ephx2 N-terminal phosphatase domain; N-terminal phosphatase activity; mouse; 10 min preincubation, together with: AttoPhos 15 µM): 100000 nM
